# Measured values collected from several papers.
# Every numbered part comes from another study and shows a few of its results, in no order. Positions count from the first letter of the parent shown.

# Block 1 — target: CCNA2, cyclin fold, Cln2 fusion (human); method: yeast growth competition, sequencing; matrix: yeast; setting: strong parent motif; baseline: not given; direction: higher = stronger binding
# Starting sequence: CDKN1B docking peptide (human); PSACRNLFGPVDH
Change,normalised enrichment score
PSACRNLFGPHDH [V11H],4.06
PSACSNLFGPVDH [R5S],0.112
PSACRNGFGPVDH [L7G],0.486
PSACINLFGPVDH [R5I],0.385
PSACRELFGPVDH [N6E],3.08

# Block 2 — method: RNA Bind-n-Seq; molecule type: RNA; matrix: in vitro; tested at: 1 µM; setting: whole 134-nt RNA, ends assumed; added: 150 mM KCl; baseline: input library; direction: higher = stronger binding
# Target: Ras GTPase-activating protein-binding protein 1, RRM domain (G3BP1, Homo sapiens, UniProt Q13283)
# Sequence of UniProt Q13283 (whole entry, looked up): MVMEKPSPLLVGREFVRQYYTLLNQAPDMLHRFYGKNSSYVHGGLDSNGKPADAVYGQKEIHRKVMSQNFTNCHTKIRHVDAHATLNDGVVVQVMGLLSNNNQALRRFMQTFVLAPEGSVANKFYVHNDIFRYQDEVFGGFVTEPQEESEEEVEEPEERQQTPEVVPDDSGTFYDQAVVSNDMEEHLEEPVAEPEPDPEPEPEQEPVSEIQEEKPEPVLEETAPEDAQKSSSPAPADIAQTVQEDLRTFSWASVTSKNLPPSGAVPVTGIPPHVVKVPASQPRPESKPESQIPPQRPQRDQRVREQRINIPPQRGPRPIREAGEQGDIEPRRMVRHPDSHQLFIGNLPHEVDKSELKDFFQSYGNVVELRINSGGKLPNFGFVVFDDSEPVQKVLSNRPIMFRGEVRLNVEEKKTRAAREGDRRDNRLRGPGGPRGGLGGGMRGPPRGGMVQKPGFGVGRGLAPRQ
# Shared flanks, not repeated: GGGAGUUCUACAGUCCGACGAUC … UGGAAUUCUCGGGUGUCAAGG
Strand,log2 enrichment
UUCCCAAGAUGGCGGCGGACGUGUCCGUUACUCACCGGCCCCCGCUGAGCCCUAAGUCUGGGGCCGAAGUCGAAGCCGGCGAUGCCGCGG,-0.832
AGUCCUGUGCUACACAUCGUAUGUACCGAAUCAAACCCCCAAAUUUUUAAAUUUAAAAAAGUAUUAUGUUACGCCGUUCGGAUCUGCACU,-0.43
UUCCUCAAGUCCUGUGCUACACAUCGUAUGUACCGAAUCGGUGGAGGUGGAAAGUAUUAUGUUACGCCGUUCGGAUCUGCACUUCCAGCA,-0.274
CAAGUCCUGUGCUACACAUCGUAUGUACCGAAUCGGGGUUUGGGGUUUGGGUUUGGAAAGUAUUAUGUUACGCCGUUCGGAUCUGCACUU,-0.574
UAGGAGGUGGAUUUUGUUUAUUUUUUUAGCUCAUUUCCAGGGGUGGGAAUUUUUUUUUAAUAUGUGUCAUGAAUAAAGUUGUUUUUGAAA,2.02
CUCAAGUCCUGUGCUACACAUCGUAUGUACCGAAUCGGAAGGGAAGGGAAGGGAAAGUAUUAUGUUACGCCGUUCGGAUCUGCACUUCCA,0.208

# Block 3 — method: universal PBM; molecule type: double-stranded DNA, one strand shown; matrix: in vitro; tested at: 600 nM; direction: higher = stronger binding
# Target: Sal-like protein 4, full length isoform A (SALL4, Homo sapiens, UniProt Q9UJQ4, residues 1-1053)
# Sequence of UniProt Q9UJQ4 (whole entry, looked up): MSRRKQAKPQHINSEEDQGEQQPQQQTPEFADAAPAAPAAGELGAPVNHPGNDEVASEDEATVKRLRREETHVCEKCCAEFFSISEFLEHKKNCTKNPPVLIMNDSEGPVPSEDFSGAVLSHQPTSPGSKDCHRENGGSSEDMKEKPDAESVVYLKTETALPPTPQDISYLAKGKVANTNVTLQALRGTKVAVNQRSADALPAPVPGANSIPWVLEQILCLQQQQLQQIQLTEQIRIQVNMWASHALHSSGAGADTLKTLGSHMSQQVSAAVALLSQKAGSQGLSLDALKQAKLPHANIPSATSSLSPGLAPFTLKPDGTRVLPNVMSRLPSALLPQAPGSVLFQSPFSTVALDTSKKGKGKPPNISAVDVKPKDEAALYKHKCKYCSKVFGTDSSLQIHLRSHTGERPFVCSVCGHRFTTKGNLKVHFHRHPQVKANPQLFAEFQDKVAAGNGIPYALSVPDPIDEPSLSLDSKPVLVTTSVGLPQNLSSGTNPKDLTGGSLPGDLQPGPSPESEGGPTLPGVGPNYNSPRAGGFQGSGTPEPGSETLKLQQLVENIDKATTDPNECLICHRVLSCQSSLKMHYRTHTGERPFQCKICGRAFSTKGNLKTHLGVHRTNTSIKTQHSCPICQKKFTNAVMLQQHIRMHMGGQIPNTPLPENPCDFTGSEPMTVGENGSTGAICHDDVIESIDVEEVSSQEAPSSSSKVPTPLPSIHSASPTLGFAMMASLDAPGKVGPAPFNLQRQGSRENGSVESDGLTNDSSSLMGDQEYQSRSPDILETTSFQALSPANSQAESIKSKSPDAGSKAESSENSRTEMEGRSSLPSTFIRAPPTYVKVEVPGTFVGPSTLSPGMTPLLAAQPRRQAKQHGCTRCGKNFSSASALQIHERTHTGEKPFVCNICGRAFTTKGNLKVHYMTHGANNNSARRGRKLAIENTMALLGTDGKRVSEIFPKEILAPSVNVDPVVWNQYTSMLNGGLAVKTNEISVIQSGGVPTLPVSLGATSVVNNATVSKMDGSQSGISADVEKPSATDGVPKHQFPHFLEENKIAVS
# Setting: 8-mer, flanks averaged, mean of replicates
Strand,E-score
ACCTAACT,0.0504
GTTGTTGA,0.123
AGGTCCTG,-0.174
ATCTCCAA,0.116
CGACGTTC,-0.214

# Further values, each from its own experiment
Molecule,target,test,test system,conditions,how to read,measurement,value
"PhoQ, residues 284 288 289 292 302 303 GTAMQF","PhoP, residues 12 14 15 18 19 STWGI (Escherichia coli, UniProt P23836)","Sort-seq, measured: YFP reporter",E. coli,"PhoQ-PhoP variant library, added: 10 µM Mg2+","baseline: high Mg2+ state, higher = stronger signaling",fold induction,1.1
